Experimental data from different studies.
Each line is one published result; not all experiments were run side by side.
Organism: Staphylococcus aureus

SMILES | assay | test system | setting | MIC
c1ccc(CCNC2CCCc3c2[nH]c2ccc(C4CCCCC4)cc32)cc1 (centres unmarked) | microbial growth, broth dilution | MRSA USA300 |  | 4 µg/mL
CC[C@@H](C)[C@H]1NC(=O)[C@H]([C@@H](C)CC)NC(=O)[C@@H](CCCN)NC(=O)[C@@H](NC(=O)[C@@H](NC(=O)[C@@H](CCC(=O)O)NC(=O)[C@H](CC(C)C)NC(=O)[C@@H]2CSC([C@@H](N)[C@@H](C)CC)=N2)[C@@H](C)CC)CCCCNC(=O)[C@H](CC(N)=O)NC(=O)[C@@H](CC(=O)O)NC(=O)[C@H](Cc2c[nH]cn2)NC1=O |  | USA300 MRSA | 18 h, 37 °C, added: ZnSO4 0.3 mM | 4 µg/mL
CC(=O)N[C@@H](Cc1c[nH]c2ccccc12)C(=O)N[C@@H](Cc1c[nH]c2ccccc12)C(=O)N[C@@H](Cc1c[nH]c2ccccc12)C(=O)N[C@@H](Cc1c[nH]c2ccccc12)C(=O)NCCCC[C@@H]1NC(=O)[C@H](CCCNC(=N)N)NC(=O)[C@H](CCCNC(=N)N)NC(=O)[C@H](CCCNC(=N)N)NC(=O)[C@H](CCCNC(=N)N)NC(=O)[C@H](CCCNC(=N)N)NC1=O | broth microdilution | MRSA ATCC 43300 | 37 °C | 53 µg/mL
CCCCCCCCCCCCCC(=O)N[C@H](CCN)C(=O)N[C@@H]1C(=O)N[C@@H](CCN)C(=O)N[C@@H](CC(C)C)C(=O)N[C@@H](CCN)C(=O)N[C@H](Cc2ccccc2)C(=O)N[C@@H](CC(C)C)C(=O)N[C@@H](CCN)C(=O)N[C@H](Cc2ccc(O)cc2)C(=O)N[C@@H](C(C)C)C(=O)N[C@@H](CC(=O)O)C(=O)O[C@@H]1C | broth microdilution | BNCC 186335 |  | 2 µg/mL
CC[S+]([O-])C1C(CO)OC(OC2C(N)CC(N)C(O)C2OC2OC(CO)C(OC3OC(CN)C(O)C(O)C3N)C2O)C(N)C1O (mixture of isomers) |  | methicillin-resistant, AAC(6') ANT(4',4'') APH(3') |  | 64 to 128 µg/mL
C[C@@H](O)[C@H]1C(=O)N2C(C(=O)O)=C(S[C@@H]3CN[C@H](C(=O)N(C)C)C3)[C@H](C)[C@H]12 | broth microdilution | multidrug-resistant |  | 6.25 µM
CC1=C[C@@H](C)[C@H]2[C@@H]3C(=O)C(Cl)(Cl)C(=O)[C@H](C)C(=O)O[C@@H](C)/C=C/C=C\[C@@H](C)[C@@H]3C=C[C@@H]2C1 | microbial growth, broth dilution | MRSA | drug-resistant strain | 0.05 µg/mL
CC(C)C[C@H](NC(=O)CN)C(=O)N[C@@H](CC(C)C)C(=O)N[C@@H](CCCCN)C(=O)N[C@@H](CC(C)C)C(=O)N[C@@H](CC(C)C)C(=O)N[C@@H](CCCCN)C(=O)N[C@@H](CCCCN)C(=O)N[C@@H](CC(C)C)C(=O)N[C@@H](CC(C)C)C(=O)N[C@@H](CCCCN)C(=O)N[C@@H](CC(C)C)C(=O)N[C@@H](CC(C)C)C(=O)N[C@@H](CCCCN)C(N)=O |  | SH1000 GFP-expressing, nutrient broth | 20 h, 37 °C | 33 µM
CC(C)C[C@@H]1NC(=O)[C@H](C)NC(=O)[C@H](NC(=O)[C@H](CO)NC(=O)[C@@H](CCCCN)NC(=O)[C@@H](CC(C)C)NC(=O)[C@H](C)N)[C@H](C(N)=O)OC(=O)[C@H](CC(C)C)NC1=O |  | MSSA ATCC 29213 | TFA salt | 16 µg/mL
CCN1CCNC1=[S+][Ag-3]([O][N+](=O)[O-])([P+](c1ccccc1)(c1ccccc1)c1ccccc1)[P+](c1ccccc1)(c1ccccc1)c1ccccc1 | agar dilution | MTCC 740 | 24 h, 37 °C | 10 µg/mL
O=C(O)c1ccc(-n2cc(/C=N/Nc3cccc(Cl)c3F)c(-c3ccc4ccccc4c3)n2)cc1 | microbial growth | ATCC700699 | drug-resistant strain | 0.78 µg/mL
CCO[C@H]1[C@H](O)[C@@H](N)[C@@H](O[C@H]2[C@H](O[C@@H]3O[C@H](CO)[C@@H](O[C@H]4O[C@@H](CN)[C@@H](O)[C@H](O)[C@H]4N)[C@H]3O)[C@@H](O)[C@H](N)C[C@@H]2N)O[C@@H]1CO | broth microdilution | MRSA isolate AG 038 |  | 8 to 16 µg/mL
O=C(O)c1ccc(-n2cc(/C=N/Nc3ccc([N+](=O)[O-])cc3)c(-c3cccc(F)c3)n2)cc1 | microbial growth | ATCC700699 | drug-resistant strain | 3.12 µg/mL
O=C1c2ccccc2NC(c2ccccc2O)N1/N=C/c1ccccc1O (centres unmarked) | microbial growth, broth dilution |  | 24 h, drug-resistant strain, clinical isolate | > 256 µg/mL
C=Cc1cc(OC)c2c(c1)c(=O)oc1c2cc(OC)c2c(O)ccc([C@@H]3O[C@H](C)[C@H](O)[C@@](C)(O)[C@H]3O)c21 | microbial growth, broth dilution | NEWMAN |  | 0.0625 µg/mL
C/C(=N\NC(=N)N)c1nnn(-c2ccc(S(=O)(=O)NC3CCCC3)cc2)c1C | microbial growth, broth dilution | MRSA USA300 | drug-resistant strain | 8 µg/mL
CC(C)C[C@@H]1NC(=O)[C@H](C)NC(=O)[C@H](NC(=O)[C@H](CO)NC(=O)[C@@H](CCCCN)NC(=O)[C@@H](CC(C)C)NC(=O)[C@@H](N)Cc2ccccc2)[C@H](C)OC(=O)[C@H](CC(C)C)NC1=O |  | MRSA ATCC 700698 | TFA salt | 8 µg/mL
CN1C(=O)[C@@H]2NC(=O)[C@@H]3NC(=O)[C@@H](c4ccc(O)cc4)NC(=O)[C@H](NC(=O)C(NCCCCCCB(O)O)c4ccc(O)cc4)Cc4c[nH]c5cc(ccc45)-c4cc3cc(c4O)Oc3ccc(cc3)C[C@H]1C(=O)N[C@@H](C(=O)OCCCCCCB(O)O)c1ccc(O)c(c1)Oc1ccc2cc1 (some centres unmarked) |  | ATCC 33591 MRSA, Mueller-Hinton broth |  | > 128 µg/mL
CC(=NNC(=N)N)c1nnn(-c2ccc(C#CC3(O)CCCCC3)cc2)c1C | broth microdilution | MRSA USA300 NRS384 |  | ≤ 4 µg/mL
CC(C)CCCCCCCCC/C=C/C(=O)N[C@@H](CC(=O)O)C(=O)N[C@H]1CNC(=O)[C@@H]2CCCN2C(=O)[C@H](Cc2ccccc2)NC(=O)[C@@H]([C@@H](C)O)NC(=O)CNC(=O)[C@H](CC(=O)O)NC(=O)CNC(=O)[C@H](CC(=O)O)NC(=O)CNC(=O)[C@H]2CCCCN2C1=O |  | MRSA USA300 | added: Ca2+ 10 mM | 8 µg/mL
COc1ccc2ccc3c(c2c1)C=[N+]1C2CCCCC2[N+]2=Cc4c(F)cccc4[O][Au-]21[O]3.F[P-](F)(F)(F)(F)F (centres unmarked) | bacterial growth, broth microdilution | vancomycin-intermediate | 24 h | > 20 µM
N#CC1COC(=O)N1/N=C/c1ccc([N+](=O)[O-])o1 (centres unmarked) | microbial growth, broth dilution | ATCC29213 | 18 h | 12.5 µg/mL
COc1ccc2c3c(oc2c1CC=C(C)C)-c1cc(CC=C(C)C)c(O)cc1OC3 |  |  |  | inactive
CCCCCCCCCCN1C(=O)/C(=N\NC(N)=S)c2cc(C)ccc21 | broth microdilution | BAA41 MRSA | 18 h, 37 °C | > 192 µg/mL
CC[C@H](C)[C@H](NC(=O)[C@@H](Cc1ccccc1)NC)C(=O)N[C@@H](CO)C(=O)N[C@H](CCCNC(=N)N)C(=O)N[C@@H](C(=O)N[C@H](C(=O)N[C@@H](CO)C(=O)N[C@H]1C(=O)N[C@@H](C)C(=O)N[C@@H](CC(C)C)C(=O)N[C@@H]([C@@H](C)CC)C(=O)O[C@H]1C)[C@@H](C)CC)[C@@H](C)CC | broth microdilution | ATCC 29213, MSSA, Mueller-Hinton broth | 16 h, 37 °C | 0.25 to 0.5 µg/mL
CC[C@H](C)[C@H](NC(=O)CNC(=O)[C@@H](NC(=O)[C@@H](N)Cc1ccccc1)[C@@H](C)CC)C(=O)N[C@@H](CCSC)C(=O)N[C@@H](C)C(=O)N[C@H](C(=O)N[C@@H](CC(C)C)C(=O)N[C@@H](C)C(=O)N[C@@H](CO)C(=O)N[C@@H](CC(C)C)C(=O)N[C@H](C(=O)N[C@H](C(=O)N1CCC[C@H]1C(=O)N[C@@H](CCCCN)C(=O)N[C@@H](CC(C)C)C(=O)N[C@H](C(=O)N[C@@H](CCC(=O)O)C(=O)N[C@@H](CCCCN)C(=O)N[C@H](C(=O)N[C@@H](CCCCN)C(=O)N[C@@H](CCC(N)=O)C(=O)N[C@@H](C)C(=O)N[C@@H](CCCNC(=N)N)C(N)=O)[C@@H](C)CC)[C@@H](C)CC)[C@@H](C)CC)C(C)C)[C@@H](C)O | broth microdilution | MRSA ATCC 33592 |  | 12.5 to 25 µM
CC[C@H](C)[C@H](NC(=O)[C@H](CCCCN)NC(=O)[C@H](CCCCN)NC(=O)[C@H](Cc1c[nH]c2ccccc12)NC(=O)[C@H](CC(N)=O)NC(=O)[C@@H](N)C(C)C)C(=O)N[C@@H](CC(C)C)C(=O)NCC(=O)N[C@@H](CCCCN)C(=O)N[C@H](C(=O)N[C@H](C(=O)N[C@@H](CCCCN)C(=O)N[C@H](C(=O)N[C@H](C(=O)N[C@@H](CCCCN)C(N)=O)C(C)C)C(C)C)[C@@H](C)CC)[C@@H](C)CC |  | MRSA AMC 201, RPMI medium | 24 h, 37 °C | 3.7 µM
COc1cc(/C=N/N2C(=O)c3ccccc3NC2c2cc(OC)c(O)c([N+](=O)[O-])c2)cc([N+](=O)[O-])c1O (centres unmarked) | microbial growth, broth dilution | MRSA | 24 h, drug-resistant strain, clinical isolate | > 256 µg/mL
CN[C@@H]1[C@H](O)[C@H](NC)[C@H]2O[C@]3(O)[C@H](O[C@@H]2[C@H]1O)O[C@H](C)C[C@@]3(O)CNCc1ccccc1 |  | MSSA ATCC 29213 |  | 50 µg/mL

Some of these lines once more:
SMILES | assay | test system | setting | MIC
CCCCCCCCCCCCCC(=O)N[C@H](CCN)C(=O)N[C@@H]1C(=O)N[C@@H](CCN)C(=O)N[C@@H](CC(C)C)C(=O)N[C@@H](CCN)C(=O)N[C@H](Cc2ccccc2)C(=O)N[C@@H](CC(C)C)C(=O)N[C@@H](CCN)C(=O)N[C@H](Cc2ccc(O)cc2)C(=O)N[C@@H](C(C)C)C(=O)N[C@@H](CC(=O)O)C(=O)O[C@@H]1C | broth microdilution | BNCC 186335 |  | 2 µg/mL
CC(C)CCCCCCCCC/C=C/C(=O)N[C@@H](CC(=O)O)C(=O)N[C@H]1CNC(=O)[C@@H]2CCCN2C(=O)[C@H](Cc2ccccc2)NC(=O)[C@@H]([C@@H](C)O)NC(=O)CNC(=O)[C@H](CC(=O)O)NC(=O)CNC(=O)[C@H](CC(=O)O)NC(=O)CNC(=O)[C@H]2CCCCN2C1=O |  | MRSA USA300 | added: Ca2+ 10 mM | 8 µg/mL
COc1cc(/C=N/N2C(=O)c3ccccc3NC2c2cc(OC)c(O)c([N+](=O)[O-])c2)cc([N+](=O)[O-])c1O (centres unmarked) | microbial growth, broth dilution | MRSA | 24 h, drug-resistant strain, clinical isolate | > 256 µg/mL
CC[C@@H](C)[C@H]1NC(=O)[C@H]([C@@H](C)CC)NC(=O)[C@@H](CCCN)NC(=O)[C@@H](NC(=O)[C@@H](NC(=O)[C@@H](CCC(=O)O)NC(=O)[C@H](CC(C)C)NC(=O)[C@@H]2CSC([C@@H](N)[C@@H](C)CC)=N2)[C@@H](C)CC)CCCCNC(=O)[C@H](CC(N)=O)NC(=O)[C@@H](CC(=O)O)NC(=O)[C@H](Cc2c[nH]cn2)NC1=O |  | USA300 MRSA | 18 h, 37 °C, added: ZnSO4 0.3 mM | 4 µg/mL
CC(C)C[C@@H]1NC(=O)[C@H](C)NC(=O)[C@H](NC(=O)[C@H](CO)NC(=O)[C@@H](CCCCN)NC(=O)[C@@H](CC(C)C)NC(=O)[C@H](C)N)[C@H](C(N)=O)OC(=O)[C@H](CC(C)C)NC1=O |  | MSSA ATCC 29213 | TFA salt | 16 µg/mL
